{"data": "Measurements collected from several papers", "organism": "Pseudomonas aeruginosa", "note": "Compare with care: the assays were run in different laboratories."}
{"SMILES": "CC(C)C[C@@H]1NC(=O)[C@H](CCN)NC(=O)CSC[C@@H](C(=O)N[C@@H](CCN)C(N)=O)NC(=O)[C@H](CC(C)C)NC(=O)[C@H](CC(C)C)NC(=O)[C@H](CC(C)C)NC(=O)[C@@H]2CSCC(=O)N[C@@H](CCN)C(=O)N[C@@H](CC(C)C)C(=O)N[C@@H](CCN)C(=O)N[C@@H](CCCCNC(=O)[C@H](CCN)NC1=O)C(=O)N[C@@H](CCN)C(=O)N[C@@H](CC(C)C)C(=O)N[C@@H](CC(C)C)C(=O)N2", "test system": "PAO1", "conditions": "24 to 25 h", "measurement": "minimal biofilm inhibitory concentration", "result": "> 32 µg/mL"}
{"SMILES": "COc1ccc(-c2ccn(CC[C@](C)(C(=O)NO)S(C)(=O)=O)c(=O)c2)c(F)c1", "test system": "PAO397 efflux-deficient, lpxC promoter mutant", "scale": "reference: parent strain", "measurement": "MIC increase", "result": "16 fold"}
{"SMILES": "CCCCCC(=O)NCC(=O)N[C@@H](CC(C)C)C(=O)N[C@@H](CC(C)C)C(=O)N[C@@H](CCCCN)C(=O)N[C@@H](CCCNC(=N)N)C(=O)N[C@H](C(=O)N[C@@H](CCCCN)C(=O)N[C@H](C(=O)N[C@@H](CC(C)C)C(=O)N[C@@H](CC(C)C)C(=O)NCCCC[C@H](NC(=O)[C@H](CC(C)C)NC(=O)[C@H](CC(C)C)NC(=O)[C@@H](NC(=O)[C@H](CCCCN)NC(=O)[C@@H](NC(=O)[C@H](CCCNC(=N)N)NC(=O)[C@H](CCCCN)NC(=O)[C@H](CC(C)C)NC(=O)[C@H](CC(C)C)NC(=O)CNC(=O)CCCCC)[C@@H](C)CC)[C@@H](C)O)C(N)=O)[C@@H](C)O)[C@@H](C)CC", "test": "checkerboard", "test system": "ATCC 27853", "conditions": "added: polymyxin B", "measurement": "FIC index", "result": 0.25}
{"SMILES": "CC[C@H](C)[C@H](NC(=O)[C@H](CCCCN)NC(=O)[C@H](CCCCN)NC(=O)[C@H](CC(C)C)NC(=O)[C@H](CCCCN)NC(=O)[C@H](CCC(=O)O)NC(=O)[C@H](CCCCN)NC(=O)[C@@H](NC(=O)[C@H](CCCCN)NC(=O)[C@H](CC(N)=O)NC(=O)[C@H](CCCNC(=N)N)NC(=O)[C@H](Cc1ccccc1)NC(=O)[C@H](CCCCN)NC(=O)[C@H](CCCNC(=N)N)NC(=O)[C@H](CC(C)C)NC(=O)[C@H](CCCNC(=N)N)NC(=O)[C@H](CCCCN)NC(=O)[C@H](CCCNC(=N)N)NC(=O)[C@H](CC(C)C)NC(=O)[C@@H](N)CC(C)C)[C@@H](C)CC)C(=O)NCC(=O)N[C@@H](CCC(N)=O)C(=O)N[C@@H](CCCCN)C(=O)N[C@H](C(=O)N[C@@H](CCC(N)=O)C(=O)NCC(=O)N[C@@H](Cc1ccccc1)C(=O)N[C@H](C(=O)N1CCC[C@H]1C(=O)N[C@@H](CCCCN)C(=O)N[C@@H](CC(C)C)C(=O)N[C@H](C(=O)N1CCC[C@H]1C(=O)N[C@@H](CCCNC(=N)N)C(=O)N[C@H](C(=O)N[C@@H](CCC(=O)O)C(=O)N[C@@H](CO)C(=O)O)[C@@H](C)O)C(C)C)C(C)C)[C@@H](C)CC", "test": "inhibition zone method", "test system": "11092618, LB 0.8% agar with 154 mM NaCl", "conditions": "overnight, 37 °C", "measurement": "lethal concentration", "result": "1.84 µM"}
{"SMILES": "CC[C@@H](C)[C@@H](NC(=O)[C@@H](C)NC(=O)[C@@H](CCCCN)NC(=O)[C@@H](CC(C)C)NC(=O)[C@@H](C)NC(=O)[C@H](NC(=O)[C@@H](Cc1c[nH]cn1)NC(=O)[C@@H](CC(C)C)NC(=O)[C@H](NC(=O)[C@H](NC(=O)[C@@H](CCCCN)NC(=O)[C@@H](CCCCN)NC(=O)[C@@H](C)NC(=O)[C@@H](CO)NC(=O)[C@@H](CCCCN)NC(=O)[C@@H](Cc1ccccc1)NC(=O)[C@H](NC(=O)[C@@H](CCCCN)NC(=O)[C@@H](CC(C)C)NC(=O)[C@@H](Cc1ccccc1)NC(=O)[C@@H](CO)NC(=O)[C@@H](CCCCN)NC(=O)[C@@H](Cc1c[nH]c2ccccc12)NC(=O)[C@@H](CCCCN)NC(C)=O)[C@H](C)O)[C@H](C)O)C(C)C)[C@H](C)O)C(=O)N[C@H](CO)C(=O)N[C@H](CO)C(N)=O", "test system": "six isolates", "measurement": "MIC geometric mean", "result": "4.1 µM"}
{"SMILES": "CC(CCCOC(=O)CCC[N+](C)(C)C)C1CCC2C3CCC4CC(OC(=O)CCC[N+](C)(C)C)CCC4(C)C3CCC12C (stereo not shown)", "test system": "ATCC 27853", "scale": "reference: HC50 over MIC", "measurement": "selectivity index", "result": 3}
{"SMILES": "CC[C@H](C)[C@H](NC(=O)[C@H](Cc1c[nH]cn1)NC(=O)[C@H](CCCCNC(=O)[C@@H](NC(=O)[C@H](CCCCN)NC(=O)[C@H](Cc1ccccc1)NC(=O)[C@H](CCCCNC(=O)[C@H](CC(C)C)NC(=O)[C@@H]1CCCN1C(=O)[C@H](CCCCN)NC(=O)CCS[C@@H]1O[C@H](CO)[C@H](O)[C@H](O)[C@H]1O)NC(=O)[C@H](CC(C)C)NC(=O)[C@@H]1CCCN1C(=O)[C@H](CCCCN)NC(=O)CCS[C@@H]1O[C@H](CO)[C@H](O)[C@H](O)[C@H]1O)[C@@H](C)CC)NC(=O)[C@@H](NC(=O)[C@H](CCCCN)NC(=O)[C@H](Cc1ccccc1)NC(=O)[C@H](CCCCNC(=O)[C@H](CC(C)C)NC(=O)[C@@H]1CCCN1C(=O)[C@H](CCCCN)NC(=O)CCS[C@@H]1O[C@H](CO)[C@H](O)[C@H](O)[C@H]1O)NC(=O)[C@H](CC(C)C)NC(=O)[C@@H]1CCCN1C(=O)[C@H](CCCCN)NC(=O)CCS[C@@H]1O[C@H](CO)[C@H](O)[C@H](O)[C@H]1O)[C@@H](C)CC)C(N)=O", "test": "biofilm formation", "test system": "PAO1", "conditions": "24 h", "measurement": "MBIC", "result": "20 µM"}
{"SMILES": "CC[C@H](C)[C@H](NC(=O)[C@H](CCCCN)NC(=O)[C@H](CCCCN)NC(=O)[C@H](CC(C)C)NC(=O)[C@H](CCCCN)NC(=O)[C@H](CCC(=O)O)NC(=O)[C@H](CCCCN)NC(=O)[C@@H](NC(=O)[C@H](CCCCN)NC(=O)[C@H](CC(N)=O)NC(=O)[C@H](CCCNC(=N)N)NC(=O)[C@H](Cc1ccccc1)NC(=O)[C@H](CCCCN)NC(=O)[C@H](CCCNC(=N)N)NC(=O)[C@H](CC(C)C)NC(=O)[C@H](CCCNC(=N)N)NC(=O)[C@H](CCCCN)NC(=O)[C@H](CCCNC(=N)N)NC(=O)[C@@H](N)CC(C)C)[C@@H](C)CC)C(=O)NCC(=O)N[C@@H](CCC(N)=O)C(=O)N[C@@H](CCCCN)C(=O)N[C@H](C(=O)N[C@@H](CCC(N)=O)C(=O)NCC(=O)N[C@@H](Cc1ccccc1)C(=O)N[C@H](C(=O)N1CCC[C@H]1C(=O)N[C@@H](CCCCN)C(=O)N[C@@H](CC(C)C)C(=O)O)C(C)C)[C@@H](C)CC", "test": "inhibition zone method", "test system": "11092304, LB 0.8% agar with 154 mM NaCl", "conditions": "overnight, 37 °C", "measurement": "lethal concentration", "result": "3.54 µM"}
{"SMILES": "CC[C@H](C)[C@H](NC(=O)[C@H](Cc1c[nH]cn1)NC(=O)[C@H](CCCCNC(=O)[C@@H](NC(=O)[C@H](CCCCN)NC(=O)CSC[C@H](NC(=O)[C@H](Cc1ccccc1)NC(=O)[C@H](CCCCNC(=O)[C@H](CC(C)C)NC(=O)[C@@H]1CCCN1C(=O)[C@H](CCCCN)NC(=O)C[C@@H]1O[C@@H](C)[C@@H](O)[C@@H](O)[C@@H]1O)NC(=O)[C@H](CC(C)C)NC(=O)[C@@H]1CCCN1C(=O)[C@H](CCCCN)NC(=O)C[C@@H]1O[C@@H](C)[C@@H](O)[C@@H](O)[C@@H]1O)C(N)=O)[C@@H](C)CC)NC(=O)[C@@H](NC(=O)[C@H](CCCCN)NC(=O)CSC[C@H](NC(=O)[C@H](Cc1ccccc1)NC(=O)[C@H](CCCCNC(=O)[C@H](CC(C)C)NC(=O)[C@@H]1CCCN1C(=O)[C@H](CCCCN)NC(=O)C[C@@H]1O[C@@H](C)[C@@H](O)[C@@H](O)[C@@H]1O)NC(=O)[C@H](CC(C)C)NC(=O)[C@@H]1CCCN1C(=O)[C@H](CCCCN)NC(=O)C[C@@H]1O[C@@H](C)[C@@H](O)[C@@H](O)[C@@H]1O)C(N)=O)[C@@H](C)CC)C(N)=O", "test": "biofilm formation", "test system": "PAO1", "conditions": "24 h", "measurement": "MBIC", "result": "45 µM"}
{"SMILES": "CN1CC(=O)N=C1N.C[C@H](CCC(=O)O)[C@H]1CC[C@H]2[C@@H]3[C@@H](O)C[C@@H]4C[C@H](O)CC[C@]4(C)[C@H]3CC[C@]12C", "test system": "TISTR357", "conditions": "1 mg per disc, 18 to 24 h, 37 °C", "measurement": "antibacterial activity", "result": "inactive"}
{"note": "Some of these lines once more:"}
{"SMILES": "CC[C@H](C)[C@H](NC(=O)[C@H](Cc1c[nH]cn1)NC(=O)[C@H](CCCCNC(=O)[C@@H](NC(=O)[C@H](CCCCN)NC(=O)CSC[C@H](NC(=O)[C@H](Cc1ccccc1)NC(=O)[C@H](CCCCNC(=O)[C@H](CC(C)C)NC(=O)[C@@H]1CCCN1C(=O)[C@H](CCCCN)NC(=O)C[C@@H]1O[C@@H](C)[C@@H](O)[C@@H](O)[C@@H]1O)NC(=O)[C@H](CC(C)C)NC(=O)[C@@H]1CCCN1C(=O)[C@H](CCCCN)NC(=O)C[C@@H]1O[C@@H](C)[C@@H](O)[C@@H](O)[C@@H]1O)C(N)=O)[C@@H](C)CC)NC(=O)[C@@H](NC(=O)[C@H](CCCCN)NC(=O)CSC[C@H](NC(=O)[C@H](Cc1ccccc1)NC(=O)[C@H](CCCCNC(=O)[C@H](CC(C)C)NC(=O)[C@@H]1CCCN1C(=O)[C@H](CCCCN)NC(=O)C[C@@H]1O[C@@H](C)[C@@H](O)[C@@H](O)[C@@H]1O)NC(=O)[C@H](CC(C)C)NC(=O)[C@@H]1CCCN1C(=O)[C@H](CCCCN)NC(=O)C[C@@H]1O[C@@H](C)[C@@H](O)[C@@H](O)[C@@H]1O)C(N)=O)[C@@H](C)CC)C(N)=O", "test": "biofilm formation", "test system": "PAO1", "conditions": "24 h", "measurement": "MBIC", "result": "45 µM"}
{"SMILES": "CN1CC(=O)N=C1N.C[C@H](CCC(=O)O)[C@H]1CC[C@H]2[C@@H]3[C@@H](O)C[C@@H]4C[C@H](O)CC[C@]4(C)[C@H]3CC[C@]12C", "test system": "TISTR357", "conditions": "1 mg per disc, 18 to 24 h, 37 °C", "measurement": "antibacterial activity", "result": "inactive"}
